Experimental data of several laboratories.
Every numbered part comes from another study and shows a few of its results, in no order.
Chain of UniProt Q9Y6M4 (whole entry, looked up): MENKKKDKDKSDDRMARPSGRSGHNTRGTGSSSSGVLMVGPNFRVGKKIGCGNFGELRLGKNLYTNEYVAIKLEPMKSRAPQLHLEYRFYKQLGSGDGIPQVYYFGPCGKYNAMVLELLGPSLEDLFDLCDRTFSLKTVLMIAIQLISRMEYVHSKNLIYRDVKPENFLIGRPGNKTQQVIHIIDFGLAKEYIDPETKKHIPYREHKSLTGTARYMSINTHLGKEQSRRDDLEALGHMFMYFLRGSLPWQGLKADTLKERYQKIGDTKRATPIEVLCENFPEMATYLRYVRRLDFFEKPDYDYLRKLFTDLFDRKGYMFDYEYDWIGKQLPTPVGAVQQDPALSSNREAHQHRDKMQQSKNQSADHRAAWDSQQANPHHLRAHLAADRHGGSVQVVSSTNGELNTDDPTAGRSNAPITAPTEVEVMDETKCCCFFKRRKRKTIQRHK
Chain of UniProt Q9UHD2 (whole entry, looked up): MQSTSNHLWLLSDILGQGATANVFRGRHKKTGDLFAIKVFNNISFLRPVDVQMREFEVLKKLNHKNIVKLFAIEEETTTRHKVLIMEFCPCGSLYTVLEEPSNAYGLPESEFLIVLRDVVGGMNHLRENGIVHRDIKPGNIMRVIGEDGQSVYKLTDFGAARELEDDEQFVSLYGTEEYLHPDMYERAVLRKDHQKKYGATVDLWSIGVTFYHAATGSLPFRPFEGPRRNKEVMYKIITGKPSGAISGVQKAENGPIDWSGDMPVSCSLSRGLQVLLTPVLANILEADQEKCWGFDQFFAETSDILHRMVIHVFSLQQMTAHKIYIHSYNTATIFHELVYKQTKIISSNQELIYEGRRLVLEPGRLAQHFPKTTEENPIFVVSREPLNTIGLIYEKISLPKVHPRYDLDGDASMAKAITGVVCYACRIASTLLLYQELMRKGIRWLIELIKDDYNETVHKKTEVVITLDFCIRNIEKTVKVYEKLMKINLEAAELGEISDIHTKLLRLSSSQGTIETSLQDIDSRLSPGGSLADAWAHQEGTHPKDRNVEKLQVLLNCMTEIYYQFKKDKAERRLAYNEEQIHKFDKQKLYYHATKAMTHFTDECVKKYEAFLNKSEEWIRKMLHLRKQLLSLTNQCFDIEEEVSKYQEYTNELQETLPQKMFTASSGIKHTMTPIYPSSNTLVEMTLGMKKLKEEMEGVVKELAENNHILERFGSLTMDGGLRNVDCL
Chain of UniProt Q86YV6 (whole entry, looked up): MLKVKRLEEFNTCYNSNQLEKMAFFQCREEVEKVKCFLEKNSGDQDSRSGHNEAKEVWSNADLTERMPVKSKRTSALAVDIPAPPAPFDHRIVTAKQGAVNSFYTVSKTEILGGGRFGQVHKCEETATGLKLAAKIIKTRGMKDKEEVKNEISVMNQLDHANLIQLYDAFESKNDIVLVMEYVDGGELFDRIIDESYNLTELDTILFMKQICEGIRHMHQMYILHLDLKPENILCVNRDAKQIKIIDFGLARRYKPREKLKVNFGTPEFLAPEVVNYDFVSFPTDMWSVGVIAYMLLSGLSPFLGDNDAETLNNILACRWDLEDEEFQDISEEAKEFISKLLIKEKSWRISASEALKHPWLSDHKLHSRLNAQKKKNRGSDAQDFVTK
Chain of UniProt Q02156 (whole entry, looked up): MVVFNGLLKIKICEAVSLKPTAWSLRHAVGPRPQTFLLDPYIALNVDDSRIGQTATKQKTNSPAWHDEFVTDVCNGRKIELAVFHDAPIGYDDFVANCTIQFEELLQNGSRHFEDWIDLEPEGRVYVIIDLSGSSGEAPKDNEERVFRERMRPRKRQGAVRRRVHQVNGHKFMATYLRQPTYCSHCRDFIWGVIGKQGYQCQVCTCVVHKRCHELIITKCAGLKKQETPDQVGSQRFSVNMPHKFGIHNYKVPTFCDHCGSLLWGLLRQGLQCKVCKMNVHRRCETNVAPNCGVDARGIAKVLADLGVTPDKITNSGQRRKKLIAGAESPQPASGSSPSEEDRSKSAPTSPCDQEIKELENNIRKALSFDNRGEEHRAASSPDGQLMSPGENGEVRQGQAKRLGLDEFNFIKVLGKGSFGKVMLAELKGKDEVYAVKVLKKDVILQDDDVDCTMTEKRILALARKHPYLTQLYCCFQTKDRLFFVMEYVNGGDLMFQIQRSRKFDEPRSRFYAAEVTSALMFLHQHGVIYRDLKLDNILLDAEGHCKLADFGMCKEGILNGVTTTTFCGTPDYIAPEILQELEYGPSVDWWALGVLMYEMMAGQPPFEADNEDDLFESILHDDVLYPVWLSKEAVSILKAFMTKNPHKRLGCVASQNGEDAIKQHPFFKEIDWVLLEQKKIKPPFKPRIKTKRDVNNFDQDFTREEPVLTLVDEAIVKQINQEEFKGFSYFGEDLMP
Chain of UniProt Q96PY6 (whole entry, looked up): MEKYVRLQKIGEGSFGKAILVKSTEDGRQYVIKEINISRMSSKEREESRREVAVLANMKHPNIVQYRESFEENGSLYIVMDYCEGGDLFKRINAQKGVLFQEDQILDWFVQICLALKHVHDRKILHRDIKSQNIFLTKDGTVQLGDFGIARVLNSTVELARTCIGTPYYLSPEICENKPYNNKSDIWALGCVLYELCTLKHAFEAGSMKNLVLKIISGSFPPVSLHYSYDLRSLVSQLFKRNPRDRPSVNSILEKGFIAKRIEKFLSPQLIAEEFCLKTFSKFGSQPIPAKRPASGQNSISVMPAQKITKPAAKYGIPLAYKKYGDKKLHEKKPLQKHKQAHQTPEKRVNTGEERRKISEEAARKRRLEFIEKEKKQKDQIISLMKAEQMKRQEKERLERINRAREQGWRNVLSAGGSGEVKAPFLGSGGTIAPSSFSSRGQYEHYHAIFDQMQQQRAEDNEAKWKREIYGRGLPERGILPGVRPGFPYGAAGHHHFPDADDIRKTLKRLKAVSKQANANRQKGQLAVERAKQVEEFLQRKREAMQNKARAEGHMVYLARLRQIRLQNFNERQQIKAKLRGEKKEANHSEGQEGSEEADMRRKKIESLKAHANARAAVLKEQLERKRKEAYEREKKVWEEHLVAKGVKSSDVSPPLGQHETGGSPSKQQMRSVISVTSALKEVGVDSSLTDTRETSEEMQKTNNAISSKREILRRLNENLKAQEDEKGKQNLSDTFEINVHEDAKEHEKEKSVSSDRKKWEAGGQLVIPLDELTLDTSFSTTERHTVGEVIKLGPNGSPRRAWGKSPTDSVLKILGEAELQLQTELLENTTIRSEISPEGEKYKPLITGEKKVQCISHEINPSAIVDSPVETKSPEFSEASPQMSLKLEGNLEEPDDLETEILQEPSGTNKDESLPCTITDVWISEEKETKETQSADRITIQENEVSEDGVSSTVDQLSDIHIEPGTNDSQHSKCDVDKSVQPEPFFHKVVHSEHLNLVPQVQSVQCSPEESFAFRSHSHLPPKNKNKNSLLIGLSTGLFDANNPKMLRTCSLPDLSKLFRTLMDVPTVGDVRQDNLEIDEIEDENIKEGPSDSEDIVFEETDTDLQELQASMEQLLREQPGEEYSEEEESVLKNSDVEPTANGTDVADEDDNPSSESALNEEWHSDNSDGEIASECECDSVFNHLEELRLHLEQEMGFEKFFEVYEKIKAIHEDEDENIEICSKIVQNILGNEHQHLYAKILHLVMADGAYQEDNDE
Chain of UniProt Q8WTQ7 (whole entry, looked up): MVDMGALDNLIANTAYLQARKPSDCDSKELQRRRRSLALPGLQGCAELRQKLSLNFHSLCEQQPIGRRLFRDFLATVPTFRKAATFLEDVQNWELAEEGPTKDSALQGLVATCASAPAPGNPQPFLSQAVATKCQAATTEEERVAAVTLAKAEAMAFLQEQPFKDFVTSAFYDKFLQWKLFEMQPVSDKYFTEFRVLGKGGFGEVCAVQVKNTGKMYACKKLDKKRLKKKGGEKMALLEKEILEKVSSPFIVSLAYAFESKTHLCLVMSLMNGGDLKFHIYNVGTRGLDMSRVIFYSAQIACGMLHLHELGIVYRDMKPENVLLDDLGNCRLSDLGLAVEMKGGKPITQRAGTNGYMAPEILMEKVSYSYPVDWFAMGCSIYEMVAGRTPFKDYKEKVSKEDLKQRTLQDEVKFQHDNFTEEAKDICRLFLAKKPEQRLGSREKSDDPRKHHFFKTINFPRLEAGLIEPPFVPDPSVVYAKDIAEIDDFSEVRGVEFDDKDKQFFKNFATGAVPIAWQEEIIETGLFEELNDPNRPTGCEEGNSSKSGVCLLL
Chain of UniProt P49841 (whole entry, looked up): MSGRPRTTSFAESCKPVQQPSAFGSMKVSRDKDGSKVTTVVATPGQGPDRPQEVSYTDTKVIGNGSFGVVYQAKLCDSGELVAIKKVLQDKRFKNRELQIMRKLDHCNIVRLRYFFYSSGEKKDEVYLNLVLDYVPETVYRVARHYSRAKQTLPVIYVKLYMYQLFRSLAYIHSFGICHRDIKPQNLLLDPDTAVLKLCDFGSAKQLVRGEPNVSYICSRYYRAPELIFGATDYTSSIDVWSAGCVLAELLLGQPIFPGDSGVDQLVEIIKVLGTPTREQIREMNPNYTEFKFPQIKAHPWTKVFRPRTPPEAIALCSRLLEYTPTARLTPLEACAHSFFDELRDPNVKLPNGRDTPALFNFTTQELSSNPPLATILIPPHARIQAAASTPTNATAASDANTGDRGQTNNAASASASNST

Block 1 — technique: protein-binding microarray; form: double-stranded DNA, one strand shown; matrix: in vitro; tested at: 2540 nM top; notes: 60-bp whole probe; with: salmon DNA 0.4 mg/ml; baseline: random background probes; direction: higher = stronger binding; all sequences stand within: GCCTAGCAC … GTCTTGATTCGCTTGACGCTGCTG
Target: Interferon regulatory factor 3, full length, phosphomimetic (IRF3, Homo sapiens, UniProt Q14653, residues 1-427, S386D/S396D/S398D/S402D/T404D/S405D)
Chain of UniProt Q14653 (whole entry, unmodified, looked up): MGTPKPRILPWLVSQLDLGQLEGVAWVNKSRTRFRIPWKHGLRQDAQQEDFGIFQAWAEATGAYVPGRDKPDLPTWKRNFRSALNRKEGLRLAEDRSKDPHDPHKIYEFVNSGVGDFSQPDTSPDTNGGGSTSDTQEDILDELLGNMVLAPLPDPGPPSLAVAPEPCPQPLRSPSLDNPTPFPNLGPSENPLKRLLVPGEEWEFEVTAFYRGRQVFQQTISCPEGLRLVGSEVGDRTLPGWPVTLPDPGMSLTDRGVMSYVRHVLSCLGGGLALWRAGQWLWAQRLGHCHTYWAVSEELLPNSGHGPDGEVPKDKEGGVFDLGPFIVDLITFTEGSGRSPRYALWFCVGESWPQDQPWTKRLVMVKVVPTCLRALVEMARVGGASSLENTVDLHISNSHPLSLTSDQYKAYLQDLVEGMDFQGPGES
Strand | fitted relative affinity
TTAGGACTGAGGTATCGGTTAGTGCTA | 0.602 z-score
TCATTTTTGCTTTCCTTACTGTGCTAG | 4.81 z-score
TTAGGTTTCGGGTATCGGTCAGTGCTA | 4.3 z-score
TCATATCCCTAATCTCAGACTGTGCTA | 1.81 z-score
GACGGTTCCGGTGTCGGGACGTGCTAG | 1.91 z-score
TCAAGTTTTACTTTCTAACTGTGCTAG | 3.77 z-score
GACGGACTGGGGAGTGGGGACGTGCTA | -0.985 z-score
TCAATCCTATATCTGAAACTGTGCTAG | 0.763 z-score

Block 2 — Compound: CC(=O)c1ccc(N2CCOCC2)cc1O; read-out: enzyme activity; action: inhibitor; tested at: 0.5 µM; baseline: control
target | remaining activity [%]
MAP2K2 (Homo sapiens, UniProt P36507) | 99.8
NEK1 (Homo sapiens, UniProt Q96PY6) | 114
TBK1 (Homo sapiens, UniProt Q9UHD2) | 99
GRK7 (Homo sapiens, UniProt Q8WTQ7) | 100
JAK3 (Homo sapiens, UniProt P52333) | 104
EPHA3 (Homo sapiens, UniProt P29320) | 108
GSK3B (Homo sapiens, UniProt P49841) | 122
LCK (Homo sapiens, UniProt P06239) | 100
MAPK3 (Homo sapiens, UniProt P27361) | 103
MAP3K5 (Homo sapiens, UniProt Q99683) | 99.4
WEE1 (Homo sapiens, UniProt P30291) | 97.5
MAP3K14 (Homo sapiens, UniProt Q99558) | 82.6
CSNK1G3 (Homo sapiens, UniProt Q9Y6M4) | 101

Block 3 — read-out: cell-free assay; technique: competition with immobilised ligand; tested at: 1 µM
Compound: CCC(=O)N[C@H]1CC[C@@H](C(=O)N(C)c2ccc(-c3nc4ccccc4o3)cc2)C1
target | remaining binding
CSNK1G3 (Homo sapiens, UniProt Q9Y6M4) | 99%
LRRK2 (Homo sapiens, UniProt Q5S007, G2019S) | 100%
PRKCE (Homo sapiens, UniProt Q02156) | 90%
MYLK4 (Homo sapiens, UniProt Q86YV6) | 100%

Block 4 — technique: RNA Bind-n-Seq; form: RNA; matrix: in vitro; tested at: 20 nM; notes: 6-mer, flanks averaged, single round; with: 150 mM KCl; baseline: input library; direction: higher = stronger binding
Target: TAR DNA-binding protein 43, full length, His tag (TARDBP, Homo sapiens, UniProt Q13148, residues 1-414)
Strand | 6-mer enrichment (R)
ACGGAA | 0.854
GGGUGU | 3.3
CUGAAA | 0.633
CCGAGC | 0.845
UGACAC | 0.785
CUAACA | 0.638
AGUCCG | 0.799
GGCACG | 2.03

Repeated from above (block 2):
target | remaining activity [%]
MAP3K5 (Homo sapiens, UniProt Q99683) | 99.4
MAPK3 (Homo sapiens, UniProt P27361) | 103
JAK3 (Homo sapiens, UniProt P52333) | 104
